Results of several laboratories.
Lines come from different studies, so protocols differ.
T1: G-quadruplex DNA, hybrid fold (Homo sapiens); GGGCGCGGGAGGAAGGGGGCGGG
T2: G-quadruplex DNA (Homo sapiens); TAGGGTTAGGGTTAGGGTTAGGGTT
T3: G-quadruplex DNA, telomeric (Homo sapiens); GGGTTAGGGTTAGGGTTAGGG
T4: G-quadruplex DNA, parallel (Homo sapiens); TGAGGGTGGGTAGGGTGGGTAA
T5: G-quadruplex DNA dimer (Homo sapiens); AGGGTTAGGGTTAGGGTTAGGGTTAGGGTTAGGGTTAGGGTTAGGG
T6: G-quadruplex DNA (Streptococcus pneumoniae); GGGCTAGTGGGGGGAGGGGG
T7: G-quadruplex DNA, c-KIT promoter (Homo sapiens); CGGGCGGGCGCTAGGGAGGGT
T8: G-quadruplex DNA, dimeric G-quadruplex; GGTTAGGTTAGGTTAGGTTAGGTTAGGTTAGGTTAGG
T9: G-quadruplex DNA, hybrid-1 monomeric G4 (Homo sapiens); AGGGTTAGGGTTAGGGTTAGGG
T10: G-quadruplex DNA, parallel G4; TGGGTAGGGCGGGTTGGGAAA
T11: G-quadruplex DNA, parallel, snap-back loop (Homo sapiens); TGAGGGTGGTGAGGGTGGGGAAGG
T12: G-quadruplex DNA, G-quadruplex (Homo sapiens); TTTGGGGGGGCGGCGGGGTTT
T13: G-quadruplex DNA (Homo sapiens); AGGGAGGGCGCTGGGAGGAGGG
T14: G-quadruplex DNA, antiparallel fold (Homo sapiens); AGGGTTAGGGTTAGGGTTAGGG

For CCn1c(-c2cccc(-c3nc4ccccc4n3CC)n2)nc2ccccc21.[C-]#Cc1ccc(C[N+](C)(C)C)cc1.[Pt+2], binding read “binds weakly” (T1, G-quadruplex DNA, hybrid fold (Homo sapiens); UV melting).
O=C(N/N=C/c1ccc(C[n+]2ccccc2)cc1)c1ccc2ccc3ccc(C(=O)N/N=C/c4ccc(C[n+]5ccccc5)cc4)nc3c2n1 — result for “change in melting temperature”: > 30 °C (T2, G-quadruplex DNA (Homo sapiens); fluorescence melting; 0.4 µM, pH 7.2, KCl 100 mM).
CN1C(=C(Cc2ccccc2)c2sc3ccccc3[n+]2C)C=Cc2ccccc21 gave a Kd of 1770 nM (T3, G-quadruplex DNA, telomeric (Homo sapiens); fluorescence titration; pH 7.4, K+ 60 mM).
For C[n+]1ccc(/C=N/NC(=O)c2cncc(C(=O)N/N=C/c3cc[n+](C)c4ccccc34)n2)c2ccccc21, the Kd was 13.9 nM (T4, G-quadruplex DNA, parallel (Homo sapiens); Cy5 fluorescence quenching titration; 2 nM, pH 7.2, KCl 100 mM).
Under “change in melting temperature”, CCN(CC)c1ccc2cc(-c3nc4c5cccnc5c5ncccc5c4[nH]3)c(=O)oc2c1.NCCN.[Pt+2] is recorded as 9 °C (T5, G-quadruplex DNA dimer (Homo sapiens); CD melting; pH 7.0, KCl 100 mM).
CN(C)CCCOc1cc(C(=O)NCc2cn(Cc3c4ccccc4cc4ccccc34)nn2)cc(C(=O)NCc2cn(Cc3c4ccccc4cc4ccccc34)nn2)c1: “melting temperature shift” 10 °C (T6, G-quadruplex DNA (Streptococcus pneumoniae); FRET melting; 5 µM, pH 7.4, potassium cacodylate 60 mM; baseline: DNA without compound, higher = more stabilisation).
OCc1c(-c2ccccc2)nc2n1ccc1nc(-c3ccccc3)c(C=NNC3=NCCN3)n12 — result for binding: “binds weakly” (T7, G-quadruplex DNA, c-KIT promoter (Homo sapiens); thiazole orange displacement, competitor, fluorescent intercalator displacement; KCl 20 mM).
Cc1ccc(Cn2cc3c(-c4ccc5c(c4)OCO5)nnc-3c3cc4c(cc32)OCO4)cc1 has a Kd of 5150 nM (T8, G-quadruplex DNA, dimeric G-quadruplex; fluorescence titration; NaCl 100 mM).
For CN(C)CCCNc1cc2c3c(c(NCCCCCCCNc4cc5c6c(ccc7c6c4C(=O)N(CCCN(C)C)C7=O)C(=O)N(CCCN(C)C)C5=O)cc4c3c1C(=O)N(CCCN(C)C)C4=O)C(=O)N(CCCN(C)C)C2=O, the Kd was 520 nM (T9, G-quadruplex DNA, hybrid-1 monomeric G4 (Homo sapiens); ITC; pH 7.0, 25 °C, KCl 100 mM).
CC1=[N+]2C(=C(c3ccc(CN=[N+]=[N-])cc3)c3ccc(C)n3[B-]2(F)F)C=C1: binding “binds weakly” (T10, G-quadruplex DNA, parallel G4; competitor, hemin competition, peroxidase activity; added: hemin 1 µM).
The Kd of CN(C)CCCN1C(=O)c2ccc3c4c(c(NCCCCCCCNc5cc6c7c(ccc8c7c5C(=O)N(CCCN(C)C)C8=O)C(=O)N(CCCN(C)C)C6=O)cc(c24)C1=O)C(=O)N(CCCN(C)C)C3=O is reported as 260 nM (T9, G-quadruplex DNA, hybrid-1 monomeric G4 (Homo sapiens); ITC; pH 7.0, 25 °C, KCl 100 mM).
C[n+]1cccc2cc(/C=N/NC(=O)c3ccc4ccc5ccc(C(=O)N/N=C/c6ccc7c(ccc[n+]7C)c6)nc5c4n3)ccc21 has a Kd of 14.8 nM (T11, G-quadruplex DNA, parallel, snap-back loop (Homo sapiens); Cy5 fluorescence quenching titration; 2 nM, pH 7.2, KCl 100 mM).
With CCC1=C(C)c2cc3[nH]c(cc4nc(cc5[nH]c(cc1n2)c(C)c5CCC(=O)NCCOCCOCC(=O)NCCN(CC(=O)N[C@H](CCCCN)C(=O)N[C@H](CCCCN)C(N)=O)C(=O)Cn1cnc2c(=O)[nH]c(N)nc21)C(CCC(=O)O)=C4C)c(C)c3CC the Kd was 10.2 nM (T12, G-quadruplex DNA, G-quadruplex (Homo sapiens); fluorescence titration; pH 7.4, KCl 50 mM, single-site fit).
CN(C)c1ccc2c(c1)[Si](C)(C)C1=CC(=[N+](C)C)C=CC1=C2c1cc(C(=O)NCCCCCC(=O)NCCOc2cc(C(=O)Nc3cc(OCCN4CCCC4)c4ccccc4n3)nc(C(=O)Nc3cc(OCCN4CCCC4)c4ccccc4n3)c2)ccc1C(=O)[O-] gave a Kd of 1000 nM (T13, G-quadruplex DNA (Homo sapiens); fluorescence titration; pH 7.4, KCl 100 mM, apparent, light-up).
C[n+]1ccc(/C=N/NC(=O)c2cccc(C(=O)N/N=C/c3cc[n+](C)c4ccccc34)n2)c2ccccc21 has a Kd of 11.2 nM (T4, G-quadruplex DNA, parallel (Homo sapiens); Cy5 fluorescence quenching titration; 2 nM, pH 7.2, KCl 100 mM).
CN1CCN(CCCNc2ccc3c(c2)/C(=C2/CCc4ccc(NCCCN5CCN(C)CC5)cc42)CC3)CC1: binding “binds weakly” (T14, G-quadruplex DNA, antiparallel fold (Homo sapiens); 1H NMR titration).

For quick reference, copied from above:
OCc1c(-c2ccccc2)nc2n1ccc1nc(-c3ccccc3)c(C=NNC3=NCCN3)n12 — result for binding: “binds weakly” (T7, G-quadruplex DNA, c-KIT promoter (Homo sapiens); thiazole orange displacement, competitor, fluorescent intercalator displacement; KCl 20 mM).
Cc1ccc(Cn2cc3c(-c4ccc5c(c4)OCO5)nnc-3c3cc4c(cc32)OCO4)cc1 has a Kd of 5150 nM (T8, G-quadruplex DNA, dimeric G-quadruplex; fluorescence titration; NaCl 100 mM).
